Measured values pooled from the literature.
Each numbered part is a random draw from the data of one study; scales do not carry over between parts. Several values in a cell are separate wells, animals, samples, runs or records.
UniProt Q16620, sequence (whole entry, looked up): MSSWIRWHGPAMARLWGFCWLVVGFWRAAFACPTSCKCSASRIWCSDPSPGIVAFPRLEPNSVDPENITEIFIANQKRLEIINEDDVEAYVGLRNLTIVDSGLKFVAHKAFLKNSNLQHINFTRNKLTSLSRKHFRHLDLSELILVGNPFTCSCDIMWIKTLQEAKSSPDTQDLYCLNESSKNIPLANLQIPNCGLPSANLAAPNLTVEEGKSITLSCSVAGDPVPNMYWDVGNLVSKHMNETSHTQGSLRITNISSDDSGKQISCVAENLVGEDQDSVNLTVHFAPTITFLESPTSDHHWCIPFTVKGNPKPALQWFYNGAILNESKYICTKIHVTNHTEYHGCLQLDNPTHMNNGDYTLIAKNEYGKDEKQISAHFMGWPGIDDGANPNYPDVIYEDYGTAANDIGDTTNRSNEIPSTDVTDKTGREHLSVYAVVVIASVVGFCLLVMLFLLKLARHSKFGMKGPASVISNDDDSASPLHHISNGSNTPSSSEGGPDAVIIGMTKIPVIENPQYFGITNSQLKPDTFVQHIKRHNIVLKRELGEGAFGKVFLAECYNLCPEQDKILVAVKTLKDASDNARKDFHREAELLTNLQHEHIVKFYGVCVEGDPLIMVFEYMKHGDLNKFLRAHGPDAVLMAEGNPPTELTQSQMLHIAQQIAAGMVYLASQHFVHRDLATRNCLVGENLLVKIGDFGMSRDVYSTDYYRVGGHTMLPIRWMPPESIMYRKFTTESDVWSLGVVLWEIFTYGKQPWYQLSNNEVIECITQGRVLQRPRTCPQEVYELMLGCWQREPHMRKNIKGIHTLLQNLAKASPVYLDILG
UniProt Q96BR1, sequence (whole entry, looked up): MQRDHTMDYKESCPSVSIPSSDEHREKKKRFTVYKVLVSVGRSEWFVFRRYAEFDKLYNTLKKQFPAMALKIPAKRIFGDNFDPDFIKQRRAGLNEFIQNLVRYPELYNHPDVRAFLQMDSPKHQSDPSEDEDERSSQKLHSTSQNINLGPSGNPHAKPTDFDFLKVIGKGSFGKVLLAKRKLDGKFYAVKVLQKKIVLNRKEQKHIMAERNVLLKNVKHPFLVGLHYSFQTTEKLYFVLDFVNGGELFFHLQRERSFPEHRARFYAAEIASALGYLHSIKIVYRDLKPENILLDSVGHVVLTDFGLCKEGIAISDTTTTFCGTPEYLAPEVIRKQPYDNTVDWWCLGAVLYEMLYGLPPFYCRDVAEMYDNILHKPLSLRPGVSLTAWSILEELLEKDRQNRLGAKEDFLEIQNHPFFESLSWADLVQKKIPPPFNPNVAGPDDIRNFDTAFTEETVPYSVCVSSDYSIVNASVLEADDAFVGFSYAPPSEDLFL
UniProt O94806, sequence (whole entry, looked up): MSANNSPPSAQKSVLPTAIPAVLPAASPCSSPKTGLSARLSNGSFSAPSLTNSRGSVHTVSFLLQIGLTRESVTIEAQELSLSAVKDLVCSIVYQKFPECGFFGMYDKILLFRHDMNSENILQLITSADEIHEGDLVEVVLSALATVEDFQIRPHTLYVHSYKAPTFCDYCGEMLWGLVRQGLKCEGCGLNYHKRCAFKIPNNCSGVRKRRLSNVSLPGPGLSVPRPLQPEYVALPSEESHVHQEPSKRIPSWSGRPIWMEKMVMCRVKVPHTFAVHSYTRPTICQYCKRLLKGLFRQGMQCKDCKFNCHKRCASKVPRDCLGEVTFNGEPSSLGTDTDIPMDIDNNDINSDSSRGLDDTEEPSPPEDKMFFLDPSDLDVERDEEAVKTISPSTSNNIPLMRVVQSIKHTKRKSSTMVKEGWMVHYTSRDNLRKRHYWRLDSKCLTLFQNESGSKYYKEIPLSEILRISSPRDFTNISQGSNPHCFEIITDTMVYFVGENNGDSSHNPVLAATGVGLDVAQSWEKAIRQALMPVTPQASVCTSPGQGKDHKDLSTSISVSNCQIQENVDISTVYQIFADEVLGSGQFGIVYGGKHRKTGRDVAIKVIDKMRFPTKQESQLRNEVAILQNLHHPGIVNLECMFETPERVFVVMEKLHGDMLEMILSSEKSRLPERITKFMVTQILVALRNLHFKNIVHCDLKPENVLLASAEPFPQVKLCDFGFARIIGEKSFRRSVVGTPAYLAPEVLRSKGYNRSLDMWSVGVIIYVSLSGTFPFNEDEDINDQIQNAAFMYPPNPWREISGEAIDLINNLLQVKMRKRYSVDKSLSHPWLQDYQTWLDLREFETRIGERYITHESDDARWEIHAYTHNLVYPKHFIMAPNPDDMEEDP
UniProt Q04771, sequence (whole entry, looked up): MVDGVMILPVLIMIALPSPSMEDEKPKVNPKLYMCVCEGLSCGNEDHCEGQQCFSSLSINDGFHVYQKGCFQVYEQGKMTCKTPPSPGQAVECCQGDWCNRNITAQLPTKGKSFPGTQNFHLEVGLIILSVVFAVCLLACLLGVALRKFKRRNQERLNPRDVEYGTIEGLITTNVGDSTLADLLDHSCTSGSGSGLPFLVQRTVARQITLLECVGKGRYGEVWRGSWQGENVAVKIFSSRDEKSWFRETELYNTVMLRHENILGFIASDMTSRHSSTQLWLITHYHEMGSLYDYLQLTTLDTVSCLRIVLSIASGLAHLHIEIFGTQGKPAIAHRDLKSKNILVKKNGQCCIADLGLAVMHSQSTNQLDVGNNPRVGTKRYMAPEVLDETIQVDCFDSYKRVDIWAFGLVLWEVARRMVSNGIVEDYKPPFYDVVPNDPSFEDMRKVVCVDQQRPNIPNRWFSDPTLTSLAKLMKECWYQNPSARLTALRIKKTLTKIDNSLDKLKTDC
UniProt P14616, sequence (whole entry, looked up): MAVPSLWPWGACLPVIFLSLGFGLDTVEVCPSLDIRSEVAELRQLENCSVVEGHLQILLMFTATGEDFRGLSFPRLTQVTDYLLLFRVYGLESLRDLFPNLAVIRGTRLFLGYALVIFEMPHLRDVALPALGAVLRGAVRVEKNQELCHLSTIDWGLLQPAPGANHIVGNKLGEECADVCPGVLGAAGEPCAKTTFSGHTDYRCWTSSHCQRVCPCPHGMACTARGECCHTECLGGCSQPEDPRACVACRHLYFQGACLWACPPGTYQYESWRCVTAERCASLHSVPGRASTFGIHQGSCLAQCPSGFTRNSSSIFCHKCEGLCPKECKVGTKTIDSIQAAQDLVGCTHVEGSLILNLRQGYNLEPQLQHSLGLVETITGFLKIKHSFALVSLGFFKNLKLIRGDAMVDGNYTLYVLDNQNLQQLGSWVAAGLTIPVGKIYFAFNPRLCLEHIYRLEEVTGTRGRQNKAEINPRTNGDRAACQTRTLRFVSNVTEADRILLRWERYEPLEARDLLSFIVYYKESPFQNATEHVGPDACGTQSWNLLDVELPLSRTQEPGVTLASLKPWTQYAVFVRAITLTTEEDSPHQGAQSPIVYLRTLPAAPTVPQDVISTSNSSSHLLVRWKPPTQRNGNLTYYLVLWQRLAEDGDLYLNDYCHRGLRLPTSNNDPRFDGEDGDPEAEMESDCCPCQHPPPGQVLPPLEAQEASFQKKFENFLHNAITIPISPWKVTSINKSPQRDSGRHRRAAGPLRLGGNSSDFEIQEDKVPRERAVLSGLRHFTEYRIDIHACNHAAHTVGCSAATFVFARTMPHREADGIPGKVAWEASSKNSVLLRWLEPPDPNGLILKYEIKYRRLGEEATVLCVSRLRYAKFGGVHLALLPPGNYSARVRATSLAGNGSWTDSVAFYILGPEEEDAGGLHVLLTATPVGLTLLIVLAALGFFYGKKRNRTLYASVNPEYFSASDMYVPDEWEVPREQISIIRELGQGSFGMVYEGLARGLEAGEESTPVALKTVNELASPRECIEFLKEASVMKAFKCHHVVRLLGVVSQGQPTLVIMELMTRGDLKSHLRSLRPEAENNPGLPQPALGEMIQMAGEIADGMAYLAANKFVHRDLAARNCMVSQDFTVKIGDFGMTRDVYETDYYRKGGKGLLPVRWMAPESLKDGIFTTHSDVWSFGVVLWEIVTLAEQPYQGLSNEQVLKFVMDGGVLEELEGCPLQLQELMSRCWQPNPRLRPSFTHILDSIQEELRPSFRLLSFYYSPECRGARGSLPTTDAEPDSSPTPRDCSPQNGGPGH
UniProt Q06418, sequence (whole entry, looked up): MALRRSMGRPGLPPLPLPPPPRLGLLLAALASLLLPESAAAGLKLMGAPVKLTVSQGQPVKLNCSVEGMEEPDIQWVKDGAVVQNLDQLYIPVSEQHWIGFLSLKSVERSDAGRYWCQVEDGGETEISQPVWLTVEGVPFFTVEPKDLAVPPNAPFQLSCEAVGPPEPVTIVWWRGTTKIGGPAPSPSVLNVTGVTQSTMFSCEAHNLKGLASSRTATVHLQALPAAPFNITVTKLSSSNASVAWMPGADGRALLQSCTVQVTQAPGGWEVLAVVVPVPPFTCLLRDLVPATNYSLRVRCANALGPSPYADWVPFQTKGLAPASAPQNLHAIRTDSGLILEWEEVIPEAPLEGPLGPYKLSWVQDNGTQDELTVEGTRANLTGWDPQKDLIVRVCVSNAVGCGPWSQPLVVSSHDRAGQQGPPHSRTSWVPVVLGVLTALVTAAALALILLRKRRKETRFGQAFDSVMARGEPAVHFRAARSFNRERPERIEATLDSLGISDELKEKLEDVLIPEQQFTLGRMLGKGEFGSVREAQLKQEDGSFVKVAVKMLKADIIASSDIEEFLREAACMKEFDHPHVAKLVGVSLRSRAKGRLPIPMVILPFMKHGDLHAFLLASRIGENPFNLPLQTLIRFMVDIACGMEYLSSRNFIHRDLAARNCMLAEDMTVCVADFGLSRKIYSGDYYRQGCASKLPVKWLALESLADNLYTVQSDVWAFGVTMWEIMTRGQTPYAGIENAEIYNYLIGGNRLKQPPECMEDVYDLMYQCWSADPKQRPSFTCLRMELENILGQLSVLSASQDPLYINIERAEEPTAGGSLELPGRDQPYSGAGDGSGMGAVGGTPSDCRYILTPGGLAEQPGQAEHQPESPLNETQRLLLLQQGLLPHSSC

Series 1
SMILES: O=c1cc(N2CCOCC2)oc2c1ccc1ccccc12
Read-out: enzyme activity
Mode: inhibitor
Tested at: 0.5 µM
Relative to: control
DYRK2 (Homo sapiens, UniProt Q92630) — remaining activity: 88.9%.
The remaining activity was 93.3% (VRK1 (Homo sapiens, UniProt Q99986)).
For MAP3K9 (Homo sapiens, UniProt P80192): remaining activity read 111%.
It gave 68.4% for remaining activity (PLK1 (Homo sapiens, UniProt P53350)).
For DSTYK (Homo sapiens, UniProt Q6XUX3): remaining activity read 110%.
It gave 97.5% for remaining activity (TAOK1 (Homo sapiens, UniProt Q7L7X3)).
INSRR (Homo sapiens, UniProt P14616) — remaining activity: 97.4%.
It gave 107% for remaining activity (ACVR1 (Homo sapiens, UniProt Q04771)).
RAF1 (Homo sapiens, UniProt P04049) — remaining activity: 97.9%.
PRKD3 (Homo sapiens, UniProt O94806) — remaining activity: 98.8%.
For SGK3 (Homo sapiens, UniProt Q96BR1): remaining activity read 106%.
PHKG2 (Homo sapiens, UniProt P15735) — remaining activity: 99.8%.
HCK (Homo sapiens, UniProt P08631) — remaining activity: 114%.
The remaining activity was 111% (PDGFRB (Homo sapiens, UniProt P09619)).
The remaining activity was 103% (MAP4K5 (Homo sapiens, UniProt Q9Y4K4)).
NTRK2 (Homo sapiens, UniProt Q16620) — remaining activity: 94%.
The remaining activity was 104% (RIPK2 (Homo sapiens, UniProt O43353)).
The remaining activity was 100% (TNK2 (Homo sapiens, UniProt Q07912)).
The remaining activity was 107% (FGFR2 (Homo sapiens, UniProt P21802)).
The remaining activity was 96.1% (ULK1 (Homo sapiens, UniProt O75385)).

Series 2
Cell line: mouse MPNST tumor cells
Method: high-content immunofluorescence imaging
Item: nuclear SOX9
Tested at: 10 µM
Time: 12 h
Notes: mean of 2 replicates
Relative to: DMSO control
Direction: higher = more nuclear SOX9
`O=C(CCCN1CC=C(n2c(=O)[nH]c3ccccc32)CC1)c1ccc(F)cc1` — result for “nuclear SOX9 intensity”: 96.8 % of DMSO.
`Nc1ccn([C@H]2CC[C@@H](CO)O2)c(=O)n1`: “nuclear SOX9 intensity” 106 % of DMSO and 113 % of DMSO.
`CCC(C)(C)c1ccc(CC(C)CN2C[C@@H](C)O[C@@H](C)C2)cc1` (stereo partly drawn): “nuclear SOX9 intensity” 98.9 % of DMSO.
`Cc1ccnc2c1NC(=O)c1cccnc1N2C1CC1`: “nuclear SOX9 intensity” 95.3 % of DMSO.
`CO[C@@]1(NC(=O)C2SC(=C(C(N)=O)C(=O)O)S2)C(=O)N2C(C(=O)O)=C(CSc3nnnn3C)CS[C@@H]21` (stereo partly drawn) — result for “nuclear SOX9 intensity”: 130 % of DMSO.
`CCC(=O)NC1CCc2cccc(OC)c2C1` (stereo not drawn) — result for “nuclear SOX9 intensity”: 121 % of DMSO.
`CCCCc1oc2ccccc2c1C(=O)c1cc(I)c(OCCN(CC)CC)c(I)c1`: “nuclear SOX9 intensity” 149 % of DMSO.
For `Cc1ccc(-c2cn3c4c(sc3n2)CCCC4)cc1`, “nuclear SOX9 intensity” read 74 % of DMSO.
`CC(C)(O)C(=O)N1CCN(c2ccc(C(F)(F)F)c(C3=C(c4c[nH]c5ccccc45)C(=O)NC3=O)c2)CC1` — result for “nuclear SOX9 intensity”: 179 % of DMSO.
Under “nuclear SOX9 intensity”, `O=C(O)CNC(=O)C(CS)Cc1ccccc1` (stereo not drawn) is recorded as 88.9 % of DMSO.

Series 3
SMILES: CC#CC(=O)N1CCC[C@H]1c1nc(-c2ccc(C(=O)Nc3ccccn3)cc2)c2c(N)nccn12
Read-out: enzyme activity
Mode: inhibitor
Tested at: 1 µM
It gave 0% for inhibition (CDK13 (Homo sapiens, UniProt Q14004)).
For EGFR (Homo sapiens, UniProt P00533, T790M): inhibition read 0%.
MYLK2 (Homo sapiens, UniProt Q9H1R3) — inhibition: 0%.
For TAOK3 (Homo sapiens, UniProt Q9H2K8): inhibition read 8%.
For MARK2 (Homo sapiens, UniProt Q7KZI7): inhibition read 0%.
PIM3 (Homo sapiens, UniProt Q86V86) — inhibition: 0%.
For TYRO3 (Homo sapiens, UniProt Q06418): inhibition read 33%.
It gave 0% for inhibition (GRK2 (Homo sapiens, UniProt P25098)).

Series 4
SMILES: COc1cc(-c2cn(C3CCc4c(F)cccc4N(CC(F)(F)F)C3=O)nn2)ccc1-n1cnc(C)c1 (stereo not drawn)
Read-out: cell-free assay
Method: competition with immobilised ligand
Tested at: 1 µM
For SGK3 (Homo sapiens, UniProt Q96BR1): remaining binding read 100%.
NEK10 (Homo sapiens, UniProt Q6ZWH5) — remaining binding: 100%.
It gave 92% for remaining binding (NTRK2 (Homo sapiens, UniProt Q16620)).
For Tyrosine-protein kinase ABL1, non-phosphorylated (ABL1, Homo sapiens, UniProt P00519, H396P): remaining binding read 52%.
Ribosomal protein S6 kinase alpha-4, C-terminal kinase domain (RPS6KA4, Homo sapiens, UniProt O75676) — remaining binding: 100%.
It gave 100% for remaining binding (PIK3CD (Homo sapiens, UniProt O00329)).
For LATS2 (Homo sapiens, UniProt Q9NRM7): remaining binding read 100%.
It gave 92% for remaining binding (BRSK1 (Homo sapiens, UniProt Q8TDC3)).
PIK3CA (Homo sapiens, UniProt P42336, H1047Y) — remaining binding: 100%.
It gave 100% for remaining binding (STK4 (Homo sapiens, UniProt Q13043)).
The remaining binding was 100% (ROCK1 (Homo sapiens, UniProt Q13464)).
For SBK3 (Homo sapiens, UniProt P0C264): remaining binding read 100%.
The remaining binding was 100% (STK3 (Homo sapiens, UniProt Q13188)).
It gave 89% for remaining binding (STK38 (Homo sapiens, UniProt Q15208)).
The remaining binding was 98% (EGFR (Homo sapiens, UniProt P00533, del752-759)).
It gave 100% for remaining binding (Ribosomal protein S6 kinase alpha-2, C-terminal kinase domain (RPS6KA2, Homo sapiens, UniProt Q15349)).
The remaining binding was 100% (MAP3K11 (Homo sapiens, UniProt Q16584)).
For BMX (Homo sapiens, UniProt P51813): remaining binding read 100%.
It gave 81% for remaining binding (MYLK (Homo sapiens, UniProt Q15746)).

A few entries again (series 1):
The remaining activity was 100% (TNK2 (Homo sapiens, UniProt Q07912)).
HCK (Homo sapiens, UniProt P08631) — remaining activity: 114%.
The remaining activity was 96.1% (ULK1 (Homo sapiens, UniProt O75385)).
PHKG2 (Homo sapiens, UniProt P15735) — remaining activity: 99.8%.
For SGK3 (Homo sapiens, UniProt Q96BR1): remaining activity read 106%.
RAF1 (Homo sapiens, UniProt P04049) — remaining activity: 97.9%.
It gave 107% for remaining activity (ACVR1 (Homo sapiens, UniProt Q04771)).
